{"data": "Experimental data collected from several papers", "Nos2": "Nitric oxide synthase, inducible (Nos2, Mus musculus, UniProt P29477)", "Tmem97": "Sigma intracellular receptor 2 (Tmem97, Rattus norvegicus, UniProt Q5U3Y7)", "note": "Lines come from different studies, so protocols differ."}
{"Structure (SMILES)": "CC(=O)N[C@@H](CC(C)C)C(=O)N[C@@H](CC(=O)O)C(=O)N[C@H](C(=O)N1CCC[C@H]1C(=O)N[C@H](C=O)CC(=O)O)C(C)C", "target or system": "Caspase-2, circularly permuted (Homo sapiens, UniProt P42575)", "assay": "enzyme activity, inhibitor", "conditions": "pH 6.5, 37 °C, together with: Z-VDVAD-AFC", "quantity": "Ki", "value": "21.9 nM"}
{"Structure (SMILES)": "Cc1cc(N)nc(C[C@@H]2CNC[C@@H]2OCCCCCc2cc(F)cc(Cl)c2)c1", "target or system": "Nos2", "assay": "enzyme activity, inhibitor", "how to read": "reference: Ki Nos2 over Ki nNOS", "quantity": "selectivity ratio", "value": 461}
{"Structure (SMILES)": "CC(=O)N[C@@H](Cc1c[nH]c2ccccc12)C(=O)N[C@@H](CC(=O)O)C(=O)N[C@@H](CCCNC(=N)N)C(=O)N[C@@H](C)C(=O)N[C@H](C=O)CC(=O)O", "target or system": "Caspase-2 (Homo sapiens, UniProt P42575)", "assay": "enzyme activity, inhibitor, fluorescence", "conditions": "pH 6.5", "quantity": "Ki", "value": "45.7 nM"}
{"Structure (SMILES)": "COc1ccc(CC[C@H]2OC(=O)[C@@H]3CCCCN3C(=O)C(=O)C(C)(C)COC(=O)/C=C/CCN(C)C(=O)[C@H](CC(C)C)N(C)C(=O)[C@@H]3CCCN3C(=O)[C@H](Cc3ccccc3)N(C)C(=O)[C@H](c3ccccc3)NC(=O)CCC(=O)Nc3cccc2c3)cc1OC", "target or system": "Peptidyl-prolyl cis-trans isomerase FKBP5 (FKBP5, Homo sapiens, UniProt Q13451)", "assay": "enzyme activity, inhibitor", "how to read": "reference: FKBP12 potency over FKBP5 potency", "quantity": "selectivity ratio", "value": "~40 fold"}
{"Structure (SMILES)": "Cc1cc(N)nc(C[C@H]2CNC[C@H]2OCCCCCc2cccc(F)c2)c1", "target or system": "Nos2", "assay": "enzyme activity, inhibitor", "how to read": "reference: Ki Nos2 over Ki nNOS", "quantity": "selectivity ratio", "value": 52}
{"Structure (SMILES)": "COc1cc(CNC(=O)C[C@H](C)CCC=C(C)C)ccc1OCc1cn(-c2ccc(Cl)cc2Cl)nn1", "target or system": "DU-145", "assay": "SRB", "conditions": "10 µM, 48 h", "quantity": "growth percent", "value": "90.5%"}
{"Structure (SMILES)": "C/C(=N\\OCCCN1CCOCC1)c1ccc(C(F)(F)F)cc1", "target or system": "Tmem97", "assay": "binding, [3H]-DTG radioligand binding", "test system": "rat brain homogenate", "how to read": "reference: Ki over sigma-1 Ki", "quantity": "selectivity ratio", "value": "366 fold"}
{"Structure (SMILES)": "COc1ccc(CCCN[C@@H]2CCC[C@H]2CN[C@@H]2CCC[C@H]2CNCCCCN[C@H]2CCC[C@@H]2CN)cc1", "target or system": "Lysine-specific histone demethylase 2 (KDM1B, Homo sapiens, UniProt Q8NB78)", "assay": "peroxidase-coupled", "how to read": "reference: Ki for KDM1B over Ki for LSD1", "quantity": "selectivity ratio", "value": 3.1}
{"Structure (SMILES)": "C#CCOC(=O)[C@@]1(C)C=C(C(=O)Nc2cccc(C(=O)Nc3ccc(C)c(Nc4nccc(-c5cccnc5)n4)c3)c2)C(=O)CC1", "target or system": "Mitogen-activated protein kinase 9 (MAPK9, Homo sapiens, UniProt P45984)", "how to read": "reference: JNK1 over MAPK9", "quantity": "selectivity ratio", "value": "10 fold"}
{"Structure (SMILES)": "CCOc1cncc(-c2ccc(NC(=O)C(CC)c3ccnc(NS(=O)(=O)C4CC4)n3)nc2)n1 (stereo not shown)", "target or system": "Ctps1 (Mus musculus, UniProt P70698)", "assay": "enzyme activity", "test system": "mouse", "how to read": "reference: CTPS2 over target IC50", "quantity": "selectivity ratio", "value": 5}
{"Structure (SMILES)": "COc1cc(CNC(=O)C[C@H](C)CCC=C(C)C)ccc1OCc1cn(-c2ccccc2Cl)nn1", "target or system": "LOX IMVI", "assay": "SRB", "conditions": "10 µM, 48 h", "quantity": "growth", "value": "56.4%"}
{"Structure (SMILES)": "C/C(=N\\OCCN1CCCC1)c1ccc(C(F)(F)F)cc1", "target or system": "Tmem97", "assay": "binding, [3H]-DTG radioligand binding", "test system": "rat brain homogenate", "how to read": "reference: Ki over sigma-1 Ki", "quantity": "selectivity ratio", "value": "948 fold"}
{"Structure (SMILES)": "COC(=O)c1cc2cc3c(cc2oc1=O)N(CC(=O)NC(Cc1ccc(C)cc1)C(=O)NCC=CS(=O)(=O)c1ccccc1)CCC3 (stereo not shown)", "target or system": "Cathepsin S (CTSS, Homo sapiens, UniProt P25774)", "assay": "enzyme activity, irreversible inhibitor", "how to read": "reference: rhodesain kinact/Ki over cathepsin S kinact/Ki", "quantity": "selectivity ratio", "value": 2.9}
{"Structure (SMILES)": "Cc1cc(N)nc(C[C@@H]2CNC[C@@H]2OCCCCOc2cc(F)cc(Cl)c2)c1", "target or system": "Nos2", "assay": "enzyme activity, inhibitor", "how to read": "reference: Ki Nos2 over Ki nNOS", "quantity": "selectivity ratio", "value": 106}
{"Structure (SMILES)": "COc1c(OC2OC(CO)C(O)C(O)C2O)cc2c(c1O)C(=O)c1c(cc(C)c(O)c1OC)C2=O (stereo not shown)", "target or system": "Amine oxidase [flavin-containing] A (MAOA, Homo sapiens, UniProt P21397)", "how to read": "reference: IC50 MAO-B over MAO-A", "quantity": "selectivity ratio", "value": 4.57}
{"Structure (SMILES)": "O=C(c1ccc(SCCF)cc1)C1CCN(C2Cc3ccccc3CC2O)CC1 (single isomer, unassigned; (-))", "target or system": "Tmem97", "assay": "radioligand competition", "conditions": "together with: [3H]DTG", "how to read": "reference: Ki sigma-2 over Ki VAChT", "quantity": "selectivity ratio", "value": "> 450"}
{"note": "For quick reference, copied from above:"}
{"Structure (SMILES)": "CC(=O)N[C@@H](CC(C)C)C(=O)N[C@@H](CC(=O)O)C(=O)N[C@H](C(=O)N1CCC[C@H]1C(=O)N[C@H](C=O)CC(=O)O)C(C)C", "target or system": "Caspase-2, circularly permuted (Homo sapiens, UniProt P42575)", "assay": "enzyme activity, inhibitor", "conditions": "pH 6.5, 37 °C, together with: Z-VDVAD-AFC", "quantity": "Ki", "value": "21.9 nM"}
{"Structure (SMILES)": "Cc1cc(N)nc(C[C@@H]2CNC[C@@H]2OCCCCCc2cc(F)cc(Cl)c2)c1", "target or system": "Nos2", "assay": "enzyme activity, inhibitor", "how to read": "reference: Ki Nos2 over Ki nNOS", "quantity": "selectivity ratio", "value": 461}
